Assay results collected from several papers.
Protocols differ between the studies behind these lines. Numbers after ± are the reported error.

CC(C)C[C@@H](NC(=O)CCNc1ccc([N+](=O)[O-])c2nonc12)C(=O)N[C@H](CC(C)C)C(=O)N[C@H](CC(C)C)C(=O)N[C@H](CC(C)C)C(=O)N[C@H](Cc1ccc(OP(=O)(O)O)cc1)C(=O)O
viability (OVSAHO; MTT; 200 µM, 24 h): > 60%

CC1CCC2C(C)C(OC(=O)CCC(=O)N(CCCc3cn(-c4ccc(C#N)cc4)nn3)CCNc3ccnc4cc(Cl)ccc34)OC3OC4(C)CCC1C32OO4 (stereo not drawn)
inhibition (MOLT-4; cell growth or viability, resazurin; 10 µM, 48 h): 35.7%

CCN(CC)CCOc1ccc(-c2nnn(Cc3ccc(OC)cc3)c2N)cc1
mRNA level (HEI-193; RT-qPCR, refers to: NDUFB8, NDUFA4, S100A10, EPHX1; concentration not given): increased

CCCN1CCNC1=[S+][Ag-3]([O][N+](=O)[O-])([P+](c1ccccc1)(c1ccccc1)c1ccccc1)[P+](c1ccccc1)(c1ccccc1)c1ccccc1
cell killing (MG-63 osteosarcoma; MTT; 50 µM): ≤ 85%

CC[C@H](C)[C@H](NC(C)=O)C(=O)N[C@@H](CC(N)=O)C(=O)N[C@@H](Cc1c[nH]c2ccccc12)C(=O)N[C@@H](CCC(=O)O)C(=O)NCC(=O)N[C@H](C(=O)N[C@@H](C)C(=O)N[C@@H](Cc1c[nH]cn1)C(=O)N[C@@H](CCSC)C(=O)N[C@@H](C)C(=O)N[C@@H](CCCCN)C(=O)N[C@@H](CCCCN)C(=O)N[C@@H](CC(C)C)C(=O)N[C@@H](CC(C)C)C(N)=O)[C@@H](C)CC
Hill coefficient (human erythrocytes; haemolysis; together with: Zn(II) 300 µM): 2.1 ± 0.1

C[C@@H]1O[C@H]2O[C@@H]3C4(O)C(=O)c5cccc(O)c5C(=O)C4(O)O[C@]3(C)[C@]21O (stereo partly drawn)
selectivity index (A549 and HFF; MTT; baseline: CC50 HFF over EC50 A549): 1.51

CC(=O)Oc1ccc(/C=C/C(=O)Nc2nc(=O)n([C@@H]3O[C@H](C)[C@@H](OC(C)=O)[C@H]3OC(C)=O)cc2F)c(OC(C)=O)c1
selectivity index (BXPC-3; cell viability, MTT; baseline: NHDF fibroblasts over BXPC-3): 2.58

CC[C@H](C)[C@H](NC(=O)[C@H](CC(N)=O)NC(=O)[C@H](CCCCN)NC(=O)[C@H](Cc1ccccc1)NC(=O)[C@H](Cc1ccccc1)NC(=O)[C@H](Cc1c[nH]cn1)NC(=O)[C@@H](NC(=O)[C@@H](NC(=O)[C@@H]1CCCN1C(=O)[C@@H](N)CC(N)=O)C(C)C)C(C)C)C(=O)N[C@H](C(=O)N[C@H](C(=O)N[C@@H](C)C(=O)O)[C@@H](C)O)C(C)C
EC50 (T cell clone Hy.2E11; T cell proliferation, agonist, [3H]thymidine incorporation; 72 h, peptide-pulsed APC, together with: EBV-transformed B cells DR2/DQ6 as APC): 2800 nM

COC(=O)c1ccc(-n2cc(CCCN(CCNc3ccnc4cc(Cl)ccc34)C(=O)CCC(=O)OC3OC4OC5(C)CCC6C(C)CCC(C3C)C46OO5)nn2)cc1 (stereo not drawn)
inhibition (RPMI-8226; cell growth or viability, resazurin; 10 µM, 48 h): 44.4%

CCC(=O)CCC[C@H](C)C[C@H](NC(=O)[C@@H]1C[C@H](C)CN1C(=O)/C=C/[C@@H](C)CC)C(=O)N[C@H](C(=O)NC(C)(C)C(=O)N[C@@H](CC(C)C)C(=O)N[C@@H](CC(C)C)C(=O)NC(C)(C)C(=O)NC(C)(C)C(=O)NCCC(=O)N[C@@H](C)CN(C)C)[C@H](O)C(C)C
GI50 (MDA-MB-453; cell growth or viability, SRB; 48 h): 3.5 nM

Cc1cc2c(C(=O)Cc3ccccc3)c(O)c(O)cc2c(O)c1-c1c(C)cc2c(C(=O)Cc3ccccc3)c(O)c(O)cc2c1O
EC50 (H460; ATP-lite viability; 72 h): 680 nM

CC(C)CC(O)(CC(C)C)c1cn(C(=O)N2CCCC2)nn1
SILAC ratio (mouse T-cells; N-terminal labeled proteins, N-terminal enrichment proteomics, refers to: LARP1; 1 nM, 6 h; baseline: DMSO): 2.57 ± 0.44

F[P-](F)(F)(F)(F)F.OCP(CO)CO.OCP(CO)CO.OCP(CO)CO.OCP(CO)CO.[Cu+]
colony formation (CCD-18Co; clonogenic; 6 h, 12 days colony growth): no effect

CNC(=O)c1cc(Oc2ccc(NC(=O)c3cc(-c4ccccc4OC(=O)CCC(=O)OC4OC5OC6(C)CCC7C(C)CCC(C4C)C57OO6)ccn3)cc2)ccn1 (stereo not drawn)
selectivity ratio (Hep3B and LO2; cell viability, MTT; 72 h; baseline: IC50 LO2 over IC50 Hep3B): 6.9

C[C@H](NC(=O)[C@@H](N)Cc1ccccc1)C(=O)NCC(=O)N[C@@H](CCCNC(=N)N)C(=O)O
viability (HaCaT; CCK-8; 100 µg/mL, 72 h, 0.4 % serum): 114 ± 8.7%

CC/C=C\C/C=C\C/C=C\C/C=C\C/C=C\C/C=C\CCC(=O)Nc1ccn(C2OC(CO)C(O)C2(F)F)c(=O)n1 (stereo not drawn)
CC50 (SF-539; NCI60 screen): 30600 nM

CC[C@H](C)[C@H](NC(=O)[C@H](Cc1ccccc1)NC(=O)[C@H](CCC(=O)O)NC(=O)[C@H](CCCCN)NC(=O)[C@H](C)NC(=O)[C@H](C)NC(=O)[C@H](CC(N)=O)NC(=O)CNC(=O)[C@H](CCC(=O)O)NC(=O)[C@H](CC(C)C)NC(=O)[C@H](Cc1ccc(O)cc1)NC(=O)[C@H](CO)NC(=O)[C@H](CO)NC(=O)[C@@H](NC(=O)[C@H](CC(=O)O)NC(=O)[C@H](CO)NC(=O)[C@@H](NC(=O)[C@H](Cc1ccccc1)NC(=O)[C@H](CCC(N)=O)NC(=O)CNC(=O)[C@H](CCC(=O)O)NC(=O)[C@H](C)NC(=O)[C@@H](N)Cc1c[nH]cn1)[C@@H](C)O)C(C)C)C(=O)N[C@@H](C)C(=O)N[C@@H](Cc1c[nH]c2ccccc12)C(=O)N[C@@H](CC(C)C)C(=O)N[C@H](C(=O)N[C@@H](CCCCN)C(=O)NCC(=O)N[C@@H](CCCNC(=N)N)C(N)=O)C(C)C
relative potency (RIN-m5F rat β-cells; insulin secretion; baseline: EC50 of analogue over EC50 of GLP-1(7-36)-amide): 0.02

CCn1cc(-c2ccn3c(-c4ccc(-c5nnc(C)o5)cc4)cnc3c2)cn1
activity (mouse Ocy454; SIK substrate phosphorylation, immunoblotting, refers to: HDAC4/5, CRTC2; concentration not given): inactive

CC12CCC3(CCC(=O)NCCCNc4ccnc5cc(Cl)ccc45)C(C)(OOC3(C)O1)O2
inhibition (MOLT-4; cell growth or viability, resazurin; 10 µM, 48 h): 16.3%

COc1ccc(NC(=O)c2ccc(NC(=O)CN3C(=O)S/C(=C\c4ccccc4OC)C3=O)cc2)cc1
selectivity index (HT-29; MTT; baseline: IC50 Vero over IC50 HT-29): 6.65

Cc1cc(O)cc(-c2nc(Nc3cc(C(F)(F)F)cc(C(F)(F)F)c3)ncc2-c2ccnc(Cl)c2)c1
viability decrease (HT-29; 10 µM, 72 h; baseline: untreated cells): > 50%

CSCC[C@@H](NC(=O)[C@@H](CC(C)C)NC(=O)CNC(=O)[C@@H](Cc1ccccc1)NC(=O)[C@@H](Cc1ccccc1)NC(=O)[C@@H](CCC(N)=O)NC(=O)[C@@H](CCC(N)=O)NC(=O)[C@H]1CCCN1C(=O)[C@@H](CCCCN)NC(=O)[C@H]1CCCN1C(=O)[C@H](N)CCCNC(=N)N)C(N)=O
onset delay of degranulation (rat mast cells; whole-cell patch-clamp capacitance; 25 to 200 µM, intracellular, 400 µM EGTA): 440 ± 100 s

C=C1C2CC3(C1O)C1CC4C5(C)CCC(O)C4(C1N(CC)C5)C3CC2O (stereo not drawn)
IC50 (HBE; cell growth or viability, MTT): 28800 nM

CC[C@H](C)[C@H](NC(C)=O)C(=O)N[C@@H](CC(N)=O)C(=O)N[C@@H](Cc1c[nH]c2ccccc12)C(=O)N[C@@H](Cc1c[nH]cn1)C(=O)NCC(=O)N[C@H](C(=O)N[C@@H](C)C(=O)N[C@@H](Cc1c[nH]cn1)C(=O)N[C@@H](CCSC)C(=O)N[C@@H](C)C(=O)N[C@@H](CCCCN)C(=O)N[C@@H](CCCCN)C(=O)N[C@@H](CC(C)C)C(=O)N[C@@H](CC(C)C)C(N)=O)[C@@H](C)CC
haemolytic potency ratio (human erythrocytes; together with: Ni(II) 300 µM; baseline: without metal): 9 fold

CC12OOC(C)(OO1)C2CCC(=O)NCCCNc1ccnc2cc(Cl)ccc12 (stereo not drawn)
inhibition (MOLT-4; cell growth or viability, resazurin; 10 µM, 48 h): 30.8%

CCOP(=O)(OCC)C(Cc1c(F)c(F)c(Sc2ccc(OC)cc2)c(F)c1F)Nc1ccccc1 (stereo not drawn)
clonogenic survival (T98G; 20 µM; baseline: untreated): 85%

C[C@@H]1N=C(c2ccccc2)c2cc(C#CCCCC(=O)NO)ccc2N(C)C1=O
apoptotic cells (NB4; annexin V/PI flow cytometry; 2.5 µM, 48 h): ~90%

CC(=O)N[C@@H](CCCNC(=N)N)C(=O)N[C@@H](CCCNC(=N)N)C(=O)N[C@@H](CCCNC(=N)N)C(=O)N[C@@H](CCCNC(=N)N)C(=O)N[C@@H](CCCNC(=N)N)C(=O)N[C@@H](CCCNC(=N)N)C(=O)N[C@@H](CCCNC(=N)N)C(=O)N[C@@H](CCCNC(=N)N)C(=O)N[C@@H](CCCNC(=N)N)C(=O)N[C@@H](CCCNC(=N)N)C(=O)NCC(=O)N[C@@H](COP(=O)(O)O)C(=O)N1CCC[C@H]1C(=O)N[C@H](C(=O)N[C@@H](Cc1ccccc1)C(=O)O)[C@@H](C)O
γH2AX-positive cells (HeLa; DNA damage, immunostaining; 10 µM, 30 min, together with: ionizing radiation 0 Gy): 0%

CC[C@H](C)[C@H]1C(=O)O[C@H](C(C)C)C(=O)N(C)[C@@H]([C@@H](C)CC)C(=O)O[C@H](C(C)C)C(=O)N(C)[C@@H]([C@@H](C)CC)C(=O)O[C@H](C(C)C)C(=O)N1C
thermal stabilization temperature (E0771; CETSA, refers to: Hsp90β; 20 µM, 1 h): > 61 °C

COC(=O)C[C@](O)(CCCC(C)(C)OC(C)=O)C(=O)O[C@@H]1C(OC)=C[C@]23CCCN2CCc2cc4c(cc2[C@H]13)OCO4
apoptotic cells (CAPAN-1, KP-4, MIA PaCa-2; annexin V/PI flow cytometry; 1 µM, 72 h): > 90%

CNC(=O)c1cc(Oc2ccc(NC(=O)c3ccc(-c4cccc(COC(=O)CCC(=O)OC5OC6OC7(C)CCC8C(C)CCC(C5C)C68OO7)c4)cn3)cc2)ccn1 (stereo not drawn)
selectivity ratio (Hep3B and LO2; cell viability, MTT; 72 h; baseline: IC50 LO2 over IC50 Hep3B): > 18.7

CCCCCCCCCCCCCC(=O)NCC(=O)N[C@@H](CCCNC(=N)N)C(=O)N[C@@H](Cc1c[nH]c2ccccc12)C(=O)N[C@@H](CCCCN)C(=O)N[C@H](C(=O)N[C@@H](Cc1ccccc1)C(=O)N[C@@H](CCCCN)C(=O)N[C@@H](CCCCN)C(=O)N[C@H](C(=O)N[C@@H](CCC(=O)O)C(=O)N[C@@H](CCCCN)C(=O)N[C@H](C(=O)NCC(=O)N[C@@H](CCC(N)=O)C(=O)N[C@@H](CC(N)=O)C(=O)N[C@H](C(=O)N[C@@H](CCCNC(=N)N)C(=O)N[C@@H](CC(=O)O)C(=O)NCC(=O)N[C@H](C(=O)N[C@H](C(=O)N[C@@H](CCCCN)C(=O)N[C@@H](C)C(=O)NCC(=O)N1CCC[C@H]1C(=O)N[C@@H](C)C(=O)N[C@H](C(=O)N[C@@H](C)C(=O)N[C@H](C(=O)N[C@H](C(=O)NCC(=O)N[C@@H](CCC(N)=O)C(=O)N[C@@H](C)C(=O)N[C@@H](C)C(=O)N[C@H](C(=O)N[C@H](C(N)=O)[C@@H](C)CC)[C@@H](C)O)C(C)C)C(C)C)C(C)C)C(C)C)[C@@H](C)CC)[C@@H](C)CC)C(C)C)[C@@H](C)CC)[C@@H](C)CC
Bax protein level (K562/MDR; western blot; concentration not given, 16 h): increased

CC1CCC2C(C)C(OC(=O)CCC(=O)N(CCCc3cn(-c4ccc(CN5CCOCC5)cc4)nn3)CCNc3ccnc4cc(Cl)ccc34)OC3OC4(C)CCC1C32OO4 (stereo not drawn)
inhibition (RPMI-8226; cell growth or viability, resazurin; 10 µM, 48 h): 27.2%
